Measured values from different studies.
Each line is one published result; not all experiments were run side by side. “And” joins repeats or separate records; there may be more than shown.
ABL1 F317I phosphorylated: Tyrosine-protein kinase ABL1, phosphorylated (ABL1, Homo sapiens, UniProt P00519, F317I)
UniProt P00519, sequence (whole entry, unmodified, looked up): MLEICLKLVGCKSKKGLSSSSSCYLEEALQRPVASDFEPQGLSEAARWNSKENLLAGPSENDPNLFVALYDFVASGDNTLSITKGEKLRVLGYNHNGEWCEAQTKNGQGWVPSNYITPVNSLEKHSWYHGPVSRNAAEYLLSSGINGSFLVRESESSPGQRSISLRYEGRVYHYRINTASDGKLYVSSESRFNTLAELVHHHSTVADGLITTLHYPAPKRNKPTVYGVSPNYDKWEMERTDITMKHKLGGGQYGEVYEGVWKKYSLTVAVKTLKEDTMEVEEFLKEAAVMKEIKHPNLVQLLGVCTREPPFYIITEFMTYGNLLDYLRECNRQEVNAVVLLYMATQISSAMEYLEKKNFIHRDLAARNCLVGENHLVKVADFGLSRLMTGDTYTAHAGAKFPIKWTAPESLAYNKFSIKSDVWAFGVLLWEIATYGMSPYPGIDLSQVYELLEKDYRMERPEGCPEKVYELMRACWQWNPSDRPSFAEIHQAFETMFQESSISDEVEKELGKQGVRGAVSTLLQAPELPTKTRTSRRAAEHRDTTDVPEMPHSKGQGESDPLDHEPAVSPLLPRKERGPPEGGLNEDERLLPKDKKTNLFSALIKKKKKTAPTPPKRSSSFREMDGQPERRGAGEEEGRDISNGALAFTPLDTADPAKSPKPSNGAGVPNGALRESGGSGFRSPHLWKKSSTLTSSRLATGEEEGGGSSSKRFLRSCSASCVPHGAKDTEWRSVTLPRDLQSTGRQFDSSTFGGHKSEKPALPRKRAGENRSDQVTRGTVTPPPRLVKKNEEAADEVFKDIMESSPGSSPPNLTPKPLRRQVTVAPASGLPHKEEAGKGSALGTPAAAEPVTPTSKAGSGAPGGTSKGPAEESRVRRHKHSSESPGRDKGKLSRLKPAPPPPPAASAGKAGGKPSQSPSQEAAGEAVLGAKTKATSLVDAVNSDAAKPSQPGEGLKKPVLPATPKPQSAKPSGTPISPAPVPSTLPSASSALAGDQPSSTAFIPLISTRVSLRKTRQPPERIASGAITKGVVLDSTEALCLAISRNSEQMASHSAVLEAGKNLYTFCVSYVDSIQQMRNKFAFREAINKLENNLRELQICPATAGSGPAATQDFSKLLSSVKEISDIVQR
ABL1 F317L: Tyrosine-protein kinase ABL1 (ABL1, Homo sapiens, UniProt P00519, F317L)

SMILES | target | effect on | method | concentration | relative to | measurement | value
Cc1ccc(-c2c(/C=C(\C#N)C(=O)NC(C)C)n(CCCO)c3ncnc(N)c23)cc1 | Tyrosine-protein kinase ABL1, non-phosphorylated (ABL1, Homo sapiens, UniProt P00519, F317L) | binding | competition with immobilised ligand | 1 µM | – | remaining binding | 97%
CCN1CCN(Cc2ccc(C(=O)Nc3ccc(C)c(NCc4cnc5[nH]ccc5c4OC)c3)cc2C(F)(F)F)CC1 | ABL1 F317I phosphorylated | binding | competition with immobilised ligand | 1 µM | – | remaining binding | 32%
CNC1C[S+]2CC[S+]3CC[S+](C1)[Ru-4]321([N]=C=S)[n]2c3ccc(OC)cc3c3c4c(c5cc(F)c[n+]1c5c32)C(=O)NC4=O (centres unmarked) | ABL1 F317I phosphorylated | – | KinomeScan | 0.1 µM | untreated | remaining binding | 73%
COc1cc(Nc2nccc(-c3cnn4nc(OC)ccc34)n2)cc(C(F)(F)F)c1 | ABL1 F317I phosphorylated | binding | – | 1 µM | – | remaining binding | 83%
C=CC(=O)N1CCCC(n2c(=O)c3ncccc3n(Cc3ccc(Oc4ccccc4)cc3)c2=O)C1 (centres unmarked) | ABL1 F317L | kinase activity | – | 1 µM | – | remaining activity | 81%
C=CC(=O)N1CCc2ccc(-n3c(=O)ccc4cnc5ccc(-c6cnn(C)c6)cc5c43)cc21 | Tyrosine-protein kinase ABL1, phosphorylated (ABL1, Homo sapiens, UniProt P00519) | – | KINOMEscan | 1 µM | DMSO control | remaining binding | 72%
Nc1ncc2c(n1)-c1c([nH]c3ccc(C4=CCOCC4)cc13)CCC2 | Tyrosine-protein kinase ABL1, phosphorylated (ABL1, Homo sapiens, UniProt P00519, E255K) | binding | competition with immobilised ligand | 1 µM | – | remaining binding | 100%
Cc1cnc2nc1Nc1cccc(c1)COC/C=C/COCc1cc(ccc1OCCN1CCOCC1)N2 | ABL1 F317L | – | – | 0.1 µM | DMSO control | remaining binding | 62% and 93%

Excerpt of the above:
SMILES | target | effect on | method | concentration | relative to | measurement | value
C=CC(=O)N1CCc2ccc(-n3c(=O)ccc4cnc5ccc(-c6cnn(C)c6)cc5c43)cc21 | Tyrosine-protein kinase ABL1, phosphorylated (ABL1, Homo sapiens, UniProt P00519) | – | KINOMEscan | 1 µM | DMSO control | remaining binding | 72%
